Measurements pooled from the literature.
“And” joins repeats or separate records; there may be more than shown. ± gives the spread as reported.

For `CNC(=O)CC1C(=O)N(C2CCN(C3CCC(C(C)C)CC3)CC2)c2ccccc21` (stereo not shown), “peak decrease in mean arterial pressure” read -57 ± 15 mmHg (conscious Sprague-Dawley rat; intravenous bolus, 100 nmol/kg).
Under “best response progressive disease”, `CC(=O)c1c(C)c2cnc(Nc3ccc(C4CCN(CCS(C)(=O)=O)CC4)cn3)nc2n(C2CCCC2)c1=O` is recorded as 9.9% (RECIST v1.1; HR+/HER2- advanced breast cancer patients; dose not given, phase Ib all arms pooled).
`Cc1nc(Nc2ccc(CC(=O)O)cc2)nc(Nc2ccc(F)c(C(F)(F)F)c2)c1C`: “serum total bilirubin” “no effect” (mice, chronic ethanol plus binge; intraperitoneal, 0.3 mg/kg daily, ethanol diet 4 weeks, dosed last two; baseline: vehicle).
With `C[C@H]1O[C@@H](O[C@H]2CC[C@@]3(C)[C@@H](CC[C@]4(C)[C@@H]3C=C[C@]35OC[C@@]6(CCC(C)(C)C[C@H]63)[C@@H](O)C[C@]54C)[C@]2(C)CO)[C@H](O)[C@@H](O[C@@H]2O[C@H](CO)[C@@H](O)[C@H](O)[C@H]2O)[C@H]1O` the protein level was 0.871 and 0.805 and 0.991 (Western blot, refers to: SIRT1; mouse, AAV8-TBG-Null control vector, liver; dose not given, high dose, unit not given, with: ethanol; baseline: β-actin).
With `CCCCC1(CCCC)CN(c2ccccc2)c2cc(SC)c(OCC(=O)N[C@@H](C(=O)NCC(=O)O)c3ccccc3)cc2S(=O)(=O)C1` the serum LDL-C was 82.9 mg/dL (refers to: LDL cholesterol; human, serum; 20 mg once daily, day 5).
For `Cn1cnc(CCN)c1`, “z-scored log2 fold change” read -0.144 (binding, equilibrium dialysis LC-MS; 5 µM, thermostabilized A2AR-BRIL construct; baseline: no-protein control, direction not given).
`C[C@]12CC[C@H](O)C[C@H]1CC[C@@H]1[C@@H]2CC[C@]2(C)[C@@H](c3ccc(=O)oc3)CC[C@]12O` has a tumour volume of 43.5 mm3 and 50.6 mm3 and 32.5 mm3 and 24.1 mm3 and 28.3 mm3 and 42.8 mm3 and 65 mm3 (female nude mouse LCC2 xenograft; 1.0 mg/kg, day 7, tamoxifen-resistant).
`[131I-].[Na+]`: “patients with indeterminate response or progression” 16.3% (paediatric patients, differentiated thyroid carcinoma, intermediate risk; dose not given, retrospective).
Under “log2 fold change”, `CC[C@H](C)[C@@H]1NC(=O)[C@@H]2CCCN2C(=O)[C@H](CC(C)C)NC(=O)[C@H](CC(C)C)NC(=O)CNC(=O)[C@@H](NC(=O)[C@@H](NC(=O)[C@H](CC(=O)O)NC(=O)CNC(=O)[C@@H](NC(=O)[C@H](C)NC(=O)CNC(=O)[C@H](CCCCN)NC(=O)[C@H](CC(C)C)NC(=O)[C@H](CC(C)C)NC(=O)[C@H](CCCCN)NC(=O)CNC(=O)[C@@H](NC(=O)[C@@H](N)CC(C)C)C(C)C)C(C)C)C(C)C)CSSC[C@@H](C(=O)O)NC1=O` is recorded as -2.55 (RNA-seq, refers to: Acpp mRNA; mouse traumatic brain injury, frontal cortex and hippocampus; dose not given; baseline: TBI plus compound vs TBI).
`Cc1cc(C2CCCCC2)n(O)c(=O)c1` gave an AC50 of 1.56 µM (AlphaScreen counterscreen; biotin-BSA bead system).
`C=CCNc1c(O)cc2c(O)c1C[C@@H](C)C[C@H](OC)[C@H](O)[C@@H](C)/C=C(\C)[C@H](OC(N)=O)[C@@H](OC)/C=C\C=C(/C)C(=O)N2` — result for “patients with metabolic progression”: 7% (18F-FDG PET EORTC criteria; human GIST; concentration not given, best response).
`CC(C)C[C@H](NC(=O)[C@H](CCC1CCCCC1)NC(=O)[C@@H]1CCCN1C(=O)c1ccc(F)cc1)C(=O)NC(C)(C)C(=O)N[C@@H](CC(C)C)C(=O)N[C@@H](CC(C)C)C(=O)NC(C)(C)C(=O)NC(C)(C)C(=O)NCCC(=O)NC1(CN(C)C)CCC1` gave an HPTS leakage of ~10% (pure DOPC GUVs; 1 µM).
The maximum fusion of `C/C=C1\NC(=O)C(C(C)O)NC(=O)C(CCCN)NC(=O)C(CCO)NC(=O)C(CCN)NC(=O)C(CCN)NC(=O)C(NC(=O)CC(O)CCCCCCCCCCC)COC(=O)C(C(O)CCl)NC(=O)C(C(O)C(=O)O)NC1=O` (stereo not shown) is reported as 75 ± 1% (calcein leakage; DOPC/DOPG/CHOL liposomes; concentration not given, with: 40 mM CaCl2).
For `CS(=O)(=O)c1ccc(-c2nnc(/C=C/c3nnc(-c4ccc(C#N)cc4)o3)n2-c2ccccc2Cl)nc1`, “normalized enrichment score” read 2.99 (RNA-seq GSEA, refers to: FALLER_ENTEROCYTE_MOUSE; organoids, small intestinal, Apc Q1405X, mouse; dose not given, 3 days, knockout organoids; baseline: DMSO, direction not given).
For `Cc1cn(-c2cc(NC(=O)c3ccc(C)c(Nc4nccc(-c5cccnc5)n4)c3)cc(C(F)(F)F)c2)cn1`, “mean difference in change” read 1 (refers to: NPI caregiver distress score; human; dose not given, 6 months versus baseline, unit not given; baseline: placebo).
Under “EFS delay (T-C)”, `CN1CCN(S(=O)(=O)c2cc([N+](=O)[O-])ccc2N(CCOS(C)(=O)=O)CCOS(C)(=O)=O)CC1` is recorded as -0.1 days (NSG mice, sample CC PDX; intraperitoneal, 25 mg/kg weekly x3; baseline: vehicle).
For `CCCCCCCCCCCCCCCC(=O)N[C@H]1C[C@@H](O)[C@@H](O)NC(=O)[C@@H]2[C@@H](O)[C@@H](C)CN2C(=O)[C@H]([C@@H](C)O)NC(=O)[C@H]([C@H](O)[C@@H](O)c2ccc(O)cc2)NC(=O)[C@@H]2C[C@@H](O)CN2C(=O)[C@H]([C@@H](C)O)NC1=O`, the maximum fusion was 10 ± 6% (calcein leakage; DOPC/DOPG/CHOL liposomes; concentration not given, with: 40 mM CaCl2).
`C[C@]1(CO)Cc2ncn(-c3ccc(C#N)c(Cl)c3)c2C(=O)O1` — result for “urinary sodium excretion 0-24 h”: 132 mmol (Japanese subjects; 80 mg single dose).
For `CNC(=O)c1c(C)oc2cc(Oc3ccnc4cc(OCCN5CCOCC5)ccc34)ccc12`, “patients with vascular response” read 83% (DCE-MRI; patients; dose not given, twice daily dosing).

Excerpt of the above:
For `CCCCCCCCCCCCCCCC(=O)N[C@H]1C[C@@H](O)[C@@H](O)NC(=O)[C@@H]2[C@@H](O)[C@@H](C)CN2C(=O)[C@H]([C@@H](C)O)NC(=O)[C@H]([C@H](O)[C@@H](O)c2ccc(O)cc2)NC(=O)[C@@H]2C[C@@H](O)CN2C(=O)[C@H]([C@@H](C)O)NC1=O`, the maximum fusion was 10 ± 6% (calcein leakage; DOPC/DOPG/CHOL liposomes; concentration not given, with: 40 mM CaCl2).
With `C[C@H]1O[C@@H](O[C@H]2CC[C@@]3(C)[C@@H](CC[C@]4(C)[C@@H]3C=C[C@]35OC[C@@]6(CCC(C)(C)C[C@H]63)[C@@H](O)C[C@]54C)[C@]2(C)CO)[C@H](O)[C@@H](O[C@@H]2O[C@H](CO)[C@@H](O)[C@H](O)[C@H]2O)[C@H]1O` the protein level was 0.871 and 0.805 and 0.991 (Western blot, refers to: SIRT1; mouse, AAV8-TBG-Null control vector, liver; dose not given, high dose, unit not given, with: ethanol; baseline: β-actin).
`C=CCNc1c(O)cc2c(O)c1C[C@@H](C)C[C@H](OC)[C@H](O)[C@@H](C)/C=C(\C)[C@H](OC(N)=O)[C@@H](OC)/C=C\C=C(/C)C(=O)N2` — result for “patients with metabolic progression”: 7% (18F-FDG PET EORTC criteria; human GIST; concentration not given, best response).
